Literature values, collected from citations in different studies.
Compare with care: the assays were run in different laboratories. Values joined by “and” are separate records of one study, mostly repeats; a detail may differ. Numbers after ± are the reported error. Values after ≈ are worked out from the molar mass of the structure shown.

| Structure (SMILES) | target or system | assay | system | conditions | how to read | endpoint | result |
| --- | --- | --- | --- | --- | --- | --- | --- |
| NC(=O)C[S+]([O-])C(c1ccccc1)c1ccccc1 (centres unmarked) | – | – | human | dose not given | – | volume of distribution at steady state | 0.72 L/kg |
| CCCCCc1cc(O)c2c(c1)OC(C)(C)[C@@H]1CCC(C)=C[C@@H]21 | – | – | human, plasma | dose not given, therapeutic dronabinol dosing | – | Tmax | 1.5 h |
| Cc1nnc2n1-c1ccc(Cl)cc1C(c1ccccc1)=NC2 | – | – | human | – | – | free Cmax | 19.7 nM |
| CN[C@@]1(c2ccccc2Cl)CCCCC1=O | – | – | mouse | dose not given, added: 1-ABT and ticlopidine | baseline: without CYP inhibitors | AUC(0-3h) | increased |
| CCCC(C(=O)c1ccc2c(c1)OCO2)N1CCCC1.Cl (racemic) | – | – | male Sprague-Dawley rat, striatum | subcutaneous, 1 mg/kg | – | striatal concentration | ~1000 ng/g |
| c1ccc2c(c1)Cc1ccccc1-2 | – | – | zebrafish embryos, whole embryo | 89.59 ng/well, 48 hpf, single exposure | – | amount in tissue | 1.15 ng/well and 1.19 ng/well and 1.1 ng/well |
| CCCCCOc1ccc(-c2ccc(-c3ccc(C(=O)N[C@H]4C[C@@H](O)[C@@H](O)NC(=O)[C@@H]5[C@@H](O)[C@@H](C)CN5C(=O)[C@H]([C@@H](C)O)NC(=O)[C@H]([C@H](O)[C@@H](O)c5ccc(O)cc5)NC(=O)[C@@H]5C[C@@H](O)CN5C(=O)[C@H]([C@@H](C)O)NC4=O)cc3)cc2)cc1 | – | – | human renal impairment severe | 50 mg single dose | – | AUC(0-inf) | 56500 ± 10400 ng·h/mL |
| COc1ccc2c3c1O[C@H]1C(=O)CC[C@H]4[C@@H](C2)N(C)CC[C@]314 | – | – | mouse | – | – | fraction unbound | 0.41 |
| COc1ccc2c3c1O[C@H]1[C@@H](O)C=C[C@H]4[C@@H](C2)N(C)CC[C@@]341 | – | – | – | – | – | log partition coefficient | 1.2 |
| CC(=O)n1c2c(c3cc(C(=O)N4CCC(C)CC4)ccc31)CN(C1CCCC1)C2 | CB2 receptor | binding | – | – | – | Ki | 88.1 nM |
| Cc1ncc2n1-c1ccc(Cl)cc1C(c1ccccc1F)=NC2 | – | – | human | dose not given | – | volume of distribution | 1 to 2 L/kg |
| COC(=O)[C@H](c1ccccc1)[C@H]1CCCCN1 | – | – | human, CES1 wild type, plasma | oral, 10 mg methylphenidate, single dose, median | – | half-life | 2.6 h |
| CCN(CC)CCOc1ccc2c(c1)C(=O)c1cc(OCCN(CC)CC)ccc1-2 | – | – | – | pH 7.4 | – | solubility | 465 µM (≈ 191 µg/mL) |
| CN1C(=O)CN=C(c2ccccc2)c2cc(Cl)ccc21 | – | – | human | average of reported values | – | blood-to-plasma ratio | 0.62 |
| CC(NC(C)(C)C)C(=O)c1cccc(Cl)c1 (centres unmarked) | – | – | dog | – | – | fraction unbound | 0.213 |
| N.O=C(O)C(F)(F)C(F)(F)C(F)(F)C(F)(F)C(F)(F)C(F)(F)C(F)(F)F | CYP1A2 | inhibitor | – | Tox21 screening | – | IC50 | inactive |
| Brc1ccc(Oc2ccc(Br)cc2Br)c(Br)c1 | H295R | – | – | concentration not given | – | aromatase reduction | no effect |
| O=C(O)[C@H](c1ccccc1)[C@H]1CCCCN1 | – | – | human, by CES1 genotype, plasma | oral, 10 mg methylphenidate, single dose, median | – | Tmax | 2 h |
| Cc1ncc2n1-c1ccc(Cl)cc1C(c1ccccc1F)=NC2 | – | – | human | average of reported values | – | plasma clearance | 5.15 mL/min/kg |
| CN1C(=O)CN=C(c2ccccc2)c2cc(Cl)ccc21 | – | – | plasma | concentration not given, total, steady state | – | Cmax | 1110 nM |
| Cc1ncc2n1-c1ccc(Cl)cc1C(c1ccccc1F)=NC2 | – | – | human | – | – | half-life | 1.5 to 2.5 h |
| CN1C(=O)CN=C(c2ccccc2)c2cc(Cl)ccc21 | – | – | human | – | – | blood-to-plasma ratio | 0.71 |
| FC(F)(F)C(F)(F)C(F)(F)C(F)(F)C(F)(F)C(F)(F)CCI | CYP2D6 | inhibitor | – | Tox21 screening | – | IC50 | inactive |
| COc1cccc(C2(O)CCCCC2CN(C)C)c1 (centres unmarked) | – | – | human, plasma | concentration not given, range of reported values | – | Cmax | 273 to 2350 nM |
| Cc1ccc(-c2nc3ccc(C)cn3c2CC(=O)N(C)C)cc1 | – | – | mouse | – | – | fraction unbound | 0.13 |
| Cc1ncc(OC[C@@]2(c3cccc(F)c3)C[C@H]2C(=O)Nc2ccc(F)cn2)c(C)n1 | – | – | human | – | – | fraction absorbed | 87% |
| Cc1nnc2n1-c1ccc(Cl)cc1C(c1ccccc1)=NC2 | – | – | human | added: ritonavir | baseline: with over without ritonavir | Cmax ratio | 1.04 |
| CC(C(=O)O)c1ccc(-c2ccccc2)c(F)c1 (centres unmarked) | – | – | human | – | – | half-life | 3 to 4 h |
| COC(=O)C(c1ccccc1)C1CCCCN1 (centres unmarked) | – | – | human, plasma | concentration not given, range of reported values | – | Cmax | 10 to 176000 nM |

A few entries again:
| Structure (SMILES) | target or system | assay | system | conditions | how to read | endpoint | result |
| --- | --- | --- | --- | --- | --- | --- | --- |
| O=C(O)[C@H](c1ccccc1)[C@H]1CCCCN1 | – | – | human, by CES1 genotype, plasma | oral, 10 mg methylphenidate, single dose, median | – | Tmax | 2 h |
| Cc1ncc2n1-c1ccc(Cl)cc1C(c1ccccc1F)=NC2 | – | – | human | average of reported values | – | plasma clearance | 5.15 mL/min/kg |
